Experimental data pooled from the literature.
Protocols differ between the studies behind these lines. “And” joins repeats or separate records; there may be more than shown. ± gives the spread as reported.
U2AF2: U2AF2 148-342 (Homo sapiens, UniProt P26368)
UniProt P26368, sequence (whole entry, looked up): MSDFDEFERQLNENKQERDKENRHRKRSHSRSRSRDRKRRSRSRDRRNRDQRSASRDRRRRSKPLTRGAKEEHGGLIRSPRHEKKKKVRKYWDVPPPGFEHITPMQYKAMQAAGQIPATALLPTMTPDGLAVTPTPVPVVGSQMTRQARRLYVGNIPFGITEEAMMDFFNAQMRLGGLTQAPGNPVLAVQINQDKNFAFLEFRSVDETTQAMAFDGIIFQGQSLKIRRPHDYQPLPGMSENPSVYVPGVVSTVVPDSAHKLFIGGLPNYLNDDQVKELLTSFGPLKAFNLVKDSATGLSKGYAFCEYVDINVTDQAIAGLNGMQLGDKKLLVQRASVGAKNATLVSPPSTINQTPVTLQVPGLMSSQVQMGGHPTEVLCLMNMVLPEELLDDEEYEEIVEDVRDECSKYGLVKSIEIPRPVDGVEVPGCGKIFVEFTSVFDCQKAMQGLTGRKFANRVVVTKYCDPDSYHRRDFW
B1: human reticulocalbin-1; sequence looked up; chain KPTVRKERVVRPDSELGERPPEDNQSFQYDHEAFLGKEDSKTFDQLTPDESKERLGKIVDRIDNDGDGFVTTEELKTWIKRVQKRYIFDNVAKVWKDYDRDKDDKISWEEYKQATYGYYLGNPAEFHDSSDHHTFKKMLPRDERRFKAADLNGDLTATREEFTAFLHPEEFEHMKEIVVLETLEDIDKNGDGFVDQDEYIADMFSHEENGPEPDWVLSEREQFNEFRDLNKDGKLDKDEIRHWILPQDYDHAQAEARHLVYESDKNKDEKLTKEEILENWNMFVGSQATNYGEDLTKNHDEL
B2: sequence looked up; chain MGRTYIVEETVGQYLSNINLQGKAFVSGLLIGQCSSQKDYVILATRTPPKEEQSENLKHPKAKLDNLDEEWATEHACQVSRMLPGGLLVLGVFIITTLELANDFQNALRRLMFAVEKSINRKRLWNFTEEEVSERVTLHICASTKKIFCRTYDIHDPKSSARPADWKYQSGLSSSWLSLECTVHINIHIPLSATSVSYTLEKNTKNGLTRWAKEIENGVYLINGQVKDEDCDLLEGQKKSSRGNTQATSHSFDVRVLTQLLLNSDHRSTATVQICSGSVNLKGAVKCRAYIHSSKPKVKDAVQAVKRDILNTVADRCEMLFEDLLLNEIPEKKDSEKEFHVLPYRVFVPLPGSTVMLCDYKFDDESAEEIRDHFMEMLDHTIQIEDLEIAEETNTACMSSSMNSQASLDNTDDEQPKQPIKTTMLLKIQQNIGVIAAFTVAVLAAGISFHYFSD
B3: human CDC5L; sequence looked up; chain MPRIMIKGGVWRNTEDEILKAAVMKYGKNQWSRIASLLHRKSAKQCKARWYEWLDPSIKKTEWSREEEEKLLHLAKLMPTQWRTIAPIIGRTAAQCLEHYEFLLDKAAQRDNEEETTDDPRKLKPGEIDPNPETKPARPDPIDMDEDELEMLSEARARLANTQGKKAKRKAREKQLEEARRLAALQKRRELRAAGIEIQKKRKRKRGVDYNAEIPFEKKPALGFYDTSEENYQALDADFRKLRQQDLDGELRSEKEGRDRKKDKQHLKRKKESDLPSAILQTSGVSEFTKKRSKLVLPAPQISDAELQEVVKVGQASEIARQTAEESGITNSASSTLLSEYNVTNNSVALRTPRTPASQDRILQEAQNLMALTNVDTPLKGGLNTPLHESDFSGVTPQRQVVQTPNTVLSTPFRTPSNGAEGLTPRSGTTPKPVINSTPGRTPLRDKLNINPEDGMADYSDPSYVKQMERESREHLRLGLLGLPAPKNDFEIVLPENAEKELEEREIDDTYIEDAADVDARKQAIRDAERVKEMKRMHKAVQKDLPRPSEVNETILRPLNVEPPLTDLQKSEELIKKEMITMLHYDLLHHPYEPSGNKKGKTVGFGTNNSEHITYLEHNPYEKFSKEELKKAQDVLVQEMEVVKQGMSHGELSSEAYNQVWEECYSQVLYLPGQSRYTRANLASKKDRIESLEKRLEINRGHMTTEAKRAAKMEKKMKILLGGYQSRAMGLMKQLNDLWDQIEQAHLELRTFEELKKHEDSAIPRRLECLKEDVQRQQEREKELQHRYADLLLEKETLKSKF
B4: human semenogelin-2; sequence looked up; chain QKGGSKGQLPSGSSQFPHGQKGQHYFGQKDQQHTKSKGSFSIQHTYHVDINDHDWTRKSQQYDLNALHKATKSKQHLGGSQQLLNYKQEGRDHDKSKGHFHMIVIHHKGGQAHHGTQNPSQDQGNSPSGKGLSSQCSNTEKRLWVHGLSKEQASASGAQKGRTQGGSQSSYVLQTEELVVNKQQRETKNSHQNKGHYQNVVDVREEHSSKLQTSLHPAHQDRLQHGPKDIFTTQDELLVYNKNQHQTKNLSQDQEHGRKAHKISYPSSRTEERQLHHGEKSVQKDVSKGSISIQTEEKIHGKSQNQVTIHSQDQEHGHKENKISYQSSSTEERHLNCGEKGIQKGVSKGSISIQTEEQIHGKSQNQVRIPSQAQEYGHKENKISYQSSSTEERRLNSGEKDVQKGVSKGSISIQTEEKIHGKSQNQVTIPSQDQEHGHKENKMSYQSSSTEERRLNYGGKSTQKDVSQSSISFQIEKLVEGKSQIQTPNPNQDQWSGQNAKGKSGQSADSKQDLLSHEQKGRYKQESSESHNIVITEHEVAQDDHLTQQYNEDRNPIST
UniProt P13393, sequence (whole entry, looked up): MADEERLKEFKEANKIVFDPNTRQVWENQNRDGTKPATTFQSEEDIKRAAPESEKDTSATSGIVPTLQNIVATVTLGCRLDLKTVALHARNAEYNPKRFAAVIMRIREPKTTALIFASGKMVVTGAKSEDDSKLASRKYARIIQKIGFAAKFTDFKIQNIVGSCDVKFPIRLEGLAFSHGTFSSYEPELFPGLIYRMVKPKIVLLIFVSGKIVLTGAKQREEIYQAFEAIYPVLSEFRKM

Molecule | target or system | test | test system | conditions | scale | measurement | value
NPDALPETLV | construct, MBP fusion, human SCRIB, PDZ 3-4 | automated holdup | peptide, crude extract | concentration not given, uncorrected, unit not given | baseline: biotin control resin, higher = stronger binding | binding intensity | 0.354
ATGACTGAATTCAAGGCCGGTTCTGCTAAGAAAGGTCAAGTCAATCGGTCC (dsDNA; 5'-amino-C6 primer) | SPT15 full length assumed (Saccharomyces cerevisiae, UniProt P13393) | array | double-stranded DNA, one strand shown | TBP alone |  | Kd | 0.0336 ± 0.00248 µM
MTVCNASQRQAHAQATAVSL | H1993 | phage binding | peptide |  | baseline: targeting over control phage | selectivity ratio | 4 ± 2.3
UUUCAAAUU (ssRNA) | U2AF2 | sequencing of bound RNA | RNA | motif only |  | Kd | 3.08 µM
B1 (human reticulocalbin-1) | CYB5R4 knockout human cells | PP4 interaction, 3xFLAG-PP4C IP-MS |  | concentration not given | baseline: CYB5R4 KO over parental | log2 fold change | 0.25
GACUUCUUA (ssRNA) | U2AF2 | sequencing of bound RNA | RNA | motif only |  | Kd | 7.67 µM
B2 | CYB5R4 knockout human cells | PP6 interaction, 3xFLAG-PP6C IP-MS |  | concentration not given | baseline: CYB5R4 KO over parental | log2 fold change | 0.1
colistin | Enterobacter cloacae | broth microdilution | clinical isolate RKI-No_34/16 |  |  | MIC | ≤ 0.5 µg/mL
maraviroc |  | Western blot, refers to: GSK-3β phospho-Tyr216 | mice, NSG hu-PBL, HIV-infected, frontal cortex | i.p., 120 mg/kg twice daily, 3 weeks post infection, normalised to total GSK-3β | baseline: HIV-infected untreated mice, decrease | protein level | 3.8 fold
GSGAGKETSF | construct, MBP fusion, human SCRIB, PDZ 3-4 | automated holdup | peptide, crude extract | concentration not given, uncorrected, unit not given | baseline: biotin control resin, higher = stronger binding | binding intensity | 0.614
heparin sodium |  |  | human | intravenous infusion, 8 IU/kg/h, day 1 to 6 |  | ACT time to Emax | 14 h
POTE ankyrin domain F (human) | CYB5R4 knockout human cells | PP4 interaction, 3xFLAG-PP4C IP-MS |  | concentration not given | baseline: CYB5R4 KO over parental | log2 fold change | -0.38
GTDPIPIGM | Jurkat expressing engineered TCR | NFAT-eGFP reporter, fluorescence microscopy | peptide | concentration not given, HLA-A*01:01 on EL4 cells |  | GFP-positive cells | 0.4%
B3 (human CDC5L) | CYB5R4 knockout human cells | PP4 interaction, 3xFLAG-PP4C IP-MS |  | concentration not given | baseline: CYB5R4 KO over parental | log2 fold change | -3.57
GSGAGRETEV | construct, MBP fusion, human SCRIB, PDZ 3-4 | surface plasmon resonance | peptide | concentration not given | higher = stronger binding | normalised SPR binding response | 41.9 normalised RU
Peginesatide | UT7/EPO | microarray, refers to: OSM mRNA (probe set 230170_at) |  | 20 nM, 90 min | baseline: vehicle | mRNA level | 36.6 fold
GSGAGKETYY | construct, MBP fusion, human SCRIB, PDZ 3-4 | automated holdup | peptide, crude extract | concentration not given, uncorrected, unit not given | baseline: biotin control resin, higher = stronger binding | binding intensity | -0.029
B4 (human semenogelin-2) | PP6C (human) | co-immunoprecipitation, IP-MS | CYB5R4 knockout cells | concentration not given | baseline: CYB5R4 knockout over parental | log2 fold change | 3.15
milbemycin oxime | Saccharomyces cerevisiae | cell growth | Pdr5 deleted, Cdr1 overexpressed | 2^-5.966 µg/mL |  | OD600 | 1.01 and 0.997 and 0.983

Repeated from above:
Molecule | target or system | test | test system | conditions | scale | measurement | value
maraviroc |  | Western blot, refers to: GSK-3β phospho-Tyr216 | mice, NSG hu-PBL, HIV-infected, frontal cortex | i.p., 120 mg/kg twice daily, 3 weeks post infection, normalised to total GSK-3β | baseline: HIV-infected untreated mice, decrease | protein level | 3.8 fold
